Measured values collected from several papers.
Protocols differ between the studies behind these lines. Values joined by “and” are separate records of one study, mostly repeats; a detail may differ. ± marks the error that the study gave.

SMILES	test	test system	setting	scale	endpoint	result
C#Cc1c(F)ccc2cc(O)cc(-c3ncc4c(N5CC6CCC(C5)N6C(=O)OC(C)OC(=O)CC)nc(OC[C@@]56CCCN5C[C@H](F)C6)nc4c3F)c12 (some centres unmarked)		simulated gastric fluid	1 µM, 30 min, 37 °C		remaining prodrug	95.9%
CC(C)[C@@H]1NC(=O)CNC(=O)[C@H](CC(N)=O)NC(=O)[C@H](CCCNC(=N)N)NC(=O)[C@H](Cc2ccc(O)cc2)NC(=O)[C@H](C(C)C)NC(=O)[C@@H](NC(=O)[C@@H](NC(=O)[C@H](CC(N)=O)NC(=O)[C@H](Cc2c[nH]c3ccccc23)NC(=O)[C@H](C)NC(=O)[C@H](Cc2ccccc2)NC(=O)CNC(=O)[C@H](CCCCN)NC(=O)[C@H](Cc2ccccc2)NC(=O)[C@H](Cc2ccccc2)NC(=O)[C@H](CCCCN)NC(=O)OCC2c3ccccc3-c3ccccc32)C(C)C)CSSC[C@@H](C(=O)N[C@@H](Cc2c[nH]cn2)C(=O)N[C@@H](CCCNC(=N)N)C(=O)N[C@@H](CCCNC(=N)N)C(=O)N[C@@H](C)C(=O)N[C@@H](CC(N)=O)C(N)=O)NC(=O)[C@H](C(C)C)NC(=O)[C@H](CCCNC(=N)N)NC1=O	HPLC	mouse mammary gland homogenate	2560 µM, 12.00 h, 37 °C, 50 mg/mL tissue		remaining peptide	61.8% and 55.6% and 60.5%
CSCC[C@@H]1NC(=O)[C@H](Cc2ccccc2)NC(=O)CNC(=O)[C@H](NC(=O)[C@@H](N)Cc2ccc(O)cc2)CSSC[C@H](C(=O)N[C@@H](Cc2c[nH]c3ccccc23)C(=O)NCc2cc(C(F)(F)F)cc(C(F)(F)F)c2)NC(=O)[C@@H]2CCCN2C1=O		rat plasma	24 h, 37 °C		remaining intact peptide	70 ± 1%
CCN(CC)CCOc1ccc(-c2nnn(Cc3ccc(OC)cc3)c2N)cc1		dog plasma	120 min		remaining compound	105%
CCCCCCCCCCCC(=O)C(C)C(=O)N1CCC[C@H]1C(=O)NC(C)(C)C(=O)NC(C)(C)C(=O)NC(C)(C)C(=O)N[C@](C)(CC)C(=O)NCCC(=O)N[C@@H](C)C(=O)N[C@](C)(CC)C(=O)N[C@@H](C)C(=O)N[C@@H](CC(C)C)C(=O)N[C@](C)(CC)C(=O)NCCC(=O)N[C@@H](C)C(=O)N[C@](C)(CC)C(=O)NCCC(=O)N[C@@H](C)C(=O)NC(C)(C)C(=O)NC(C)(C)C(=O)NC(C)(C)C(=O)N[C@@H](C)C(=O)N[C@@H](CC(=O)O)C(=O)O (some centres unmarked)	LC-MS	50% pooled human serum	40 µM, 720 min, pH 7.5, 37 °C	reference: 0 h	remaining intact peptide	28.2% and 28.5% and 25.2%
C#Cc1c(F)ccc2cc(O)cc(-c3ncc4c(N5CC6CCC(C5)N6C(=O)OC(C)OC(=O)C(C)C)nc(OC[C@@]56CCCN5C[C@H](F)C6)nc4c3F)c12 (some centres unmarked)		simulated gastric fluid	1 µM, 30 min, 37 °C		remaining prodrug	97.6%
CC[C@H](C)[C@H](NC(=O)[C@@H](NC(=O)[C@H](CCCCN)NC(=O)[C@@H](N)[C@@H](C)O)C(C)C)C(=O)N[C@@H](CC(C)C)C(=O)N[C@@H](Cc1c[nH]cn1)C(N)=O	LC-MS	pronase digest	200 µM, 2 h, pH 7.5, 37 °C, with: pronase 2.5 µg/mL		remaining intact peptide	10%
C#Cc1c(F)ccc2cc(O)cc(-c3ncc4c(N5CC6CCC(C5)N6C(=O)OC(C)OC(=O)C(CCCC)CCCCCC)nc(OC[C@@]56CCCN5C[C@H](F)C6)nc4c3F)c12 (some centres unmarked)		simulated gastric fluid	1 µM, 30 min, 37 °C		remaining prodrug	107%
C[C@H](NC(=O)CNC(=O)[C@@H]1CCCN1C(=O)[C@H](CO)NC(=O)CNC(=O)[C@H](CO)NC(=O)[C@H](C)NC(=O)[C@H](CC(N)=O)NC(=O)[C@H](C)NC(=O)[C@H](CO)NC(=O)[C@H](C)NC(=O)[C@H](CO)NC(=O)[C@@H]1CCCN1C(=O)[C@H](Cc1ccccc1)NC(=O)[C@H](C)NC(=O)[C@H](CO)NC(=O)[C@@H]1CCCN1C(=O)[C@H](Cc1ccccc1)NC(=O)[C@@H](NC(=O)[C@H](CC(=O)O)NC(=O)[C@@H](N)CO)[C@@H](C)O)C(=O)N[C@@H](CCCNC(=N)N)C(=O)N[C@@H](CO)C(=O)O		50% mouse plasma	60 min		remaining peptide	1.02%
Cc1cc(-c2ccc3ccccc3c2)nnc1NCCN1CCN(C)CC1		human liver microsomes	20 min		remaining compound	96.6%
Cc1nnc(-c2ccc(CC(=O)NCCCC[C@H](NC(=O)c3ccc(OCc4ccc(B(O)O)cc4)c(-c4nc5ccccc5c(=O)[nH]4)c3)C(=O)NCC(=O)NCC(=O)NCC(=O)N[C@@H](Cc3ccccc3)C(=O)N[C@@H](Cc3ccccc3)C(=O)O)cc2)nn1	UPLC-MS/MS	human serum	100 µM, 1 h, 37 °C		remaining compound	83.3% and 90.4%
C=CCN1CCC23c4c5ccc(OC(=O)c6ccc(N)cc6)c4OC2C(=O)CCC3(O)C1C5 (centres unmarked)		rat plasma	0 h, with: loperamide 100 µM		remaining compound	103% and 99% and 98.2%
C#Cc1c(F)ccc2cc(O)cc(-c3ncc4c(N5CC6CCC(C5)N6C(=O)OC(C)OC(=O)CCCCCCC)nc(OC[C@@]56CCCN5C[C@H](F)C6)nc4c3F)c12 (some centres unmarked)		simulated gastric fluid	1 µM, 30 min, 37 °C		remaining prodrug	109%
CC[C@H](C)[C@H](NC(=O)[C@H](CCC(N)=O)NC(=O)[C@@H](NC(=O)[C@@H]1CCCN1[C@@H]1CN(C(=O)[C@H](CCCCN)NC(=O)[C@H](CC(N)=O)NC(=O)[C@@H](NC(=O)[C@@H](NC(=O)[C@H](CCC(N)=O)NC(=O)[C@@H](N)C(C)C)[C@@H](C)CC)[C@@H](C)CC)CC[C@H]1NS(=O)(=O)c1ccc(C)cc1)C(C)C)C(=O)N[C@H](C(=O)N[C@@H](Cc1ccc(O)cc1)C(=O)N[C@@H](CCCCN)C(N)=O)C(C)C	LC-MS	pronase digest	200 µM, 10 min, pH 7.5, 37 °C, with: pronase 2.5 µg/mL		remaining intact peptide	87%
C=CCN1CCC23c4c5ccc(OC(=O)c6ccccc6)c4OC2C(=O)CCC3(O)C1C5 (centres unmarked)		rat plasma	0.5 h, with: loperamide 100 µM		remaining compound	13.1% and 11% and 11.7%
C#Cc1c(F)ccc2cc(O)cc(-c3ncc4c(N5CC6CCC(C5)N6C(=O)OC(OC(=O)CCC)C(C)C)nc(OC[C@@]56CCCN5C[C@H](F)C6)nc4c3F)c12 (some centres unmarked)		simulated gastric fluid	1 µM, 30 min, 37 °C		remaining prodrug	95.6%
CSCC[C@H](NC(=O)[C@H](CCCNC(=N)N)NC(=O)[C@H](CCCNC(=N)N)NC(=O)[C@H](CCCCN)NC(=O)[C@H](C)NC(=O)[C@H](CCCNC(=N)N)NC(=O)CNC(=O)[C@@H](N)[C@@H](C)O)C(=O)N[C@@H](CCC(N)=O)C(=O)N[C@@H](Cc1ccc(O)cc1)C(=O)N[C@@H](CC(N)=O)C(=O)N[C@@H](CCCNC(=N)N)C(=O)N[C@@H](CCCNC(=N)N)C(N)=O	HPLC peak area	50% human serum	100 µM, 12 h, pH 7.4, 37 °C	reference: 0 h	remaining peptide	6.45% and 8.76% and 9.96%
C#Cc1c(F)ccc2cc(O)cc(-c3ncc4c(N5CC6CCC(C5)N6C(=O)OC(C)OC(=O)CC56CC7CC(CC(C7)C5)C6)nc(OC[C@@]56CCCN5C[C@H](F)C6)nc4c3F)c12 (some centres unmarked)		simulated gastric fluid	1 µM, 30 min, 37 °C		remaining prodrug	112%
C=CCN1CCC23c4c5ccc(OC(=O)c6ccc(NC(=O)OC(C)(C)C)cc6)c4OC2C(=O)CCC3(O)C1C5 (centres unmarked)		rat plasma	0.5 h, no inhibitor		remaining compound	1.3%
CC[C@H](C)[C@H](NC(=O)[C@@H](NC(=O)[C@H](CCCCN)NC(=O)[C@@H](NC(=O)CNC(=O)[C@@H](N)CCCNC(=N)N)[C@@H](C)O)C(C)C)C(=O)N[C@@H](CC(C)C)C(=O)N[C@@H](Cc1c[nH]cn1)C(=O)N[C@@H](CC(C)C)C(N)=O	LC-MS	pronase digest	200 µM, 10 min, pH 7.5, 37 °C, with: pronase 2.5 µg/mL		remaining intact peptide	24%

For quick reference, copied from above:
SMILES	test	test system	setting	scale	endpoint	result
CC[C@H](C)[C@H](NC(=O)[C@@H](NC(=O)[C@H](CCCCN)NC(=O)[C@@H](N)[C@@H](C)O)C(C)C)C(=O)N[C@@H](CC(C)C)C(=O)N[C@@H](Cc1c[nH]cn1)C(N)=O	LC-MS	pronase digest	200 µM, 2 h, pH 7.5, 37 °C, with: pronase 2.5 µg/mL		remaining intact peptide	10%
